Assay results of several laboratories.
A part holds a random share of what one study measured.

Sample 1 — technique: RNA Bind-n-Seq; molecule type: RNA; medium: in vitro; concentration: 1 µM; setting: whole 134-nt RNA, ends assumed; together with: 150 mM KCl; reference: input library; direction: higher = stronger binding
Target: Ras GTPase-activating protein-binding protein 1, C-terminal RGG region (G3BP1, Homo sapiens, UniProt Q13283)
UniProt Q13283, sequence (whole entry, looked up): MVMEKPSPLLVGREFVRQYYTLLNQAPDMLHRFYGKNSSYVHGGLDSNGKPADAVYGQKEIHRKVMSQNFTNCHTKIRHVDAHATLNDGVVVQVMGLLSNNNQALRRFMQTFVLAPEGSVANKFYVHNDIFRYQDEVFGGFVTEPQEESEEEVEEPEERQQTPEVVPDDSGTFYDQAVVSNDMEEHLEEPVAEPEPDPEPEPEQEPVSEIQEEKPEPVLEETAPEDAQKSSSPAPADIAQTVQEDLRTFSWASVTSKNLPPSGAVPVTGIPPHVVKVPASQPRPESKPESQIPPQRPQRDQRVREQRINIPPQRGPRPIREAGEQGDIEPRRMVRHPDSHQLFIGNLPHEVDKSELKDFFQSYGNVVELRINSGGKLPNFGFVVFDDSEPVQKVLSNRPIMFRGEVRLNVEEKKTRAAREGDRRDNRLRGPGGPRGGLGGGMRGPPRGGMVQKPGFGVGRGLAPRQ
The log2 enrichment of `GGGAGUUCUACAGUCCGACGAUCCCUCAAGUCCUGUGCUACACAUCGUAUGUACCGAAUCGGGAGGGAGGGUGGGAAAGUAUUAUGUUACGCCGUUCGGAUCUGCACUUCCAGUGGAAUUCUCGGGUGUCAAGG` is reported as 1.97.
With `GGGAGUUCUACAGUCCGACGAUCCCUGUGCUACACAUCGUAUGUACCGAAUCGGGGAAAAAAAGGGGUGGGGAAAAAAAGGGGAAAGUAUUAUGUUACGCCGUUCGGAUCUGCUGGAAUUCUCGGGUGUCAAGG` the log2 enrichment was 0.194.
`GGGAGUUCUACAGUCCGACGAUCUAACUUUAGAGGAGGAUCUGACGGAUAUGGCAGUGGACGUGGAUUUGGGGAUGGCUAUAAUGGGUAUGGAGGAGGACCUGGAGGUGGCAAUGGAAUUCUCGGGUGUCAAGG` gave a log2 enrichment of -1.61.
`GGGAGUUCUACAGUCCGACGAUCUAACUUUAGAGGAGGAUCUGAUGGAUAUGGCAGUGGACGUGGAUUCGGGGAUGGCUAUAAUGGGUAUGGAGGAGGACCUGGAGGUGGCAAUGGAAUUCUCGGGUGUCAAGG` gave a log2 enrichment of -1.03.
`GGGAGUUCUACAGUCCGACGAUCAAGUCCUGUGCUACACAUCGUAUGUACCGAAUCGGGAAAAAGGGAAAAAGGGAGGGAAAGUAUUAUGUUACGCCGUUCGGAUCUGCACUUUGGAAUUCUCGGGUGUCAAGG` has a log2 enrichment of 1.68.
`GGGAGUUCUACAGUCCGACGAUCGCAGGAAGUAAAAACAAAUGGAAAUGCUUCGGAUAGUGGCAGGGGUGGGGGUUGCUAAGGAAAGGGUGGGAUGGGACUGGGUAAAGAGUUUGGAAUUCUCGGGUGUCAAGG` gave a log2 enrichment of 1.65.
For `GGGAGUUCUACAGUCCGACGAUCUAACUUUAGAGGAGGAUCUGAUGGAUAUGGCAGUGGACGUGGAUUUGGGGAUGGCUAUAAUGGGUAUGGAGGAGGACCUGGAGGGGGCAAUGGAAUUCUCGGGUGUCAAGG`, the log2 enrichment was -0.596.

Sample 2 — technique: protein binding microarray; molecule type: double-stranded DNA, one strand shown; medium: in vitro; concentration: not given; reference: not given; direction: higher = stronger binding
Target: Histone acetyltransferase KAT6A, both winged helices, GST fusion (KAT6A, Homo sapiens, UniProt Q92794, residues 1-181)
Setting: 8-mer, flanks averaged, mean of 2 arrays, mostly near background
Residues (chain): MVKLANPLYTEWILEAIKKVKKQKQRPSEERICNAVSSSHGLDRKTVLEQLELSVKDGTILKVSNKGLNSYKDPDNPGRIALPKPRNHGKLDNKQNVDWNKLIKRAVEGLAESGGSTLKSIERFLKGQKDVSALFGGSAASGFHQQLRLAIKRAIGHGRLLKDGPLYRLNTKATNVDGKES
For `CCTAGGTC`, the E-score was -0.122.
`CCTTAGCG` has an E-score of 0.166.
With `CTTTGCAA` the E-score was -0.115.
For `AGGATTGC`, the E-score was -0.106.
For `ATCATTTG`, the E-score was -0.134.

Sample 3 — technique: competition protein-binding microarray; molecule type: double-stranded DNA, one strand shown; medium: in vitro; concentration: 2 µM; together with: Pho4 competitor, 0.05 µM; direction: higher = stronger binding
Target: Centromere-binding protein 1, full length, His-tagged (CBF1, Saccharomyces cerevisiae, UniProt P17106, residues 1-351)
UniProt P17106, sequence (whole entry, looked up): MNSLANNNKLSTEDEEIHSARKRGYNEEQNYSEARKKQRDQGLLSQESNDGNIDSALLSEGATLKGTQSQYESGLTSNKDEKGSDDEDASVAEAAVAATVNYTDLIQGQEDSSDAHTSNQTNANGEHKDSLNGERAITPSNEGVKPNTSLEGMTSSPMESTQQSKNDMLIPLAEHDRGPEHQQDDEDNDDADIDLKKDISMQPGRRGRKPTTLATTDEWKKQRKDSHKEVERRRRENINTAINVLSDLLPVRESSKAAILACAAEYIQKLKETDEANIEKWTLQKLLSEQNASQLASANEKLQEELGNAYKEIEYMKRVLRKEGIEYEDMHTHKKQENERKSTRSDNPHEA
Setting: whole 60-bp probe, lowest competitor level
With `CCGGAATACCGAAAGCACGGGCCAGACCGAAATCGAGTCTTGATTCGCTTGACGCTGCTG` the fluorescence intensity was 80.6 a.u.
`ATCACTACCAAGAATAACGTGACGGTGCATAGGAGCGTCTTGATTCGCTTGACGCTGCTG` gave a fluorescence intensity of 480 a.u.
For `ATTAGTAATAGCCATCACGTGATGGTCCCTGGAAAGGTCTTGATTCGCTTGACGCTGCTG`, the fluorescence intensity was 12100 a.u.
With `CTTCTGTAAATTTGTCACGAGACTTGACGCGCCCCGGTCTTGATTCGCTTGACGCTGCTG` the fluorescence intensity was 938 a.u.
`CTCAGTGGTTAGAGCTTCGTGCTTTTAGCAACATTCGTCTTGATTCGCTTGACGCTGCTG` has a fluorescence intensity of 84.3 a.u.
For `CCGACGTCCGCCTTGCATGCGCTCTCGCATTTTTAAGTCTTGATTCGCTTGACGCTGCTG`, the fluorescence intensity was 78.5 a.u.
The fluorescence intensity of `CAAATCGAAACCACCATCGTGTCCTTCCTTGGGAACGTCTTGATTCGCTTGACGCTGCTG` is reported as 71 a.u.

Single results of other studies
With `PhoQ, residues 284 288 289 292 302 303 NLSRDF` the fold induction was 14.1 (PhoP, residues 12 14 15 18 19 VQALL (Escherichia coli, UniProt P23836); Sort-seq, item: YFP reporter; E. coli; PhoQ-PhoP variant library, together with: 10 µM Mg2+; reference: high Mg2+ state, higher = stronger signaling).

For quick reference, copied from above (sample 3):
With `CCGGAATACCGAAAGCACGGGCCAGACCGAAATCGAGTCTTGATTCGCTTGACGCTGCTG` the fluorescence intensity was 80.6 a.u.
`ATCACTACCAAGAATAACGTGACGGTGCATAGGAGCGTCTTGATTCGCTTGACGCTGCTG` gave a fluorescence intensity of 480 a.u.
